{"data": "Published values from different studies", "note": "Parts stem from different laboratories: compare values within a part only. Positions count from the first letter of the parent shown."}
{"data": "Sample 1", "target": "RNA binding protein fox-1 homolog 2, RRM domain, GST-SBP tag (RBFOX2, Homo sapiens, UniProt O43251-10, residues 100-194)", "technique": "RNA Bind-n-Seq", "molecule type": "RNA", "matrix": "in vitro", "tested at": "365 nM", "notes": "natural RNA segment, single round, ends assumed", "reference": "no-protein control", "direction": "higher = stronger binding", "all sequences stand within": "GGGAGUUCUACAGUCCGACGAUC … UGGAAUUCUCGGGUGCCAA", "Construct (chain)": "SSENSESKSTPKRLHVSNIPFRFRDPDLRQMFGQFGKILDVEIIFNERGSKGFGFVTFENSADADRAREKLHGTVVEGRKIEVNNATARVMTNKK"}
{"Strand": "AGCAGGUCCCCAGGGGCCUGCAGGGAAUCUUUCAGCUGCACGGAUUGGGAUUUCCCUCCAAACCAAACUGUCCUUUAAGGGGCAGCCUCCUCUUUUACUAACUCCACCCU", "RBNS enrichment (R)": 0.621}
{"Strand": "GGUGGAGUCUUAGGAAGACCCAGGAGUGACUGAGCAGGACAGUAAAGGGAUUCUCCUCAGAACCCAUUGAGUCCUCCACCCCACAGUUGUGCUUGGAAGCCUGUUGACUG", "RBNS enrichment (R)": 1.02}
{"Strand": "CACCAUGGCCGAGCUUCAUGUCACAUGGCCUGGCGAUUGUGCUUGUUCACACUGGGGCCAGGAUUUUCAUACUAAAACGUCACUGACAAUGGGGCUACUUUUCUCCUGAA", "RBNS enrichment (R)": 0.316}
{"Strand": "AAAAAGCACUUUUUCAAUUGUGCUGAGUUAGACAUCUGUGAGUUAGACUAUGGUGUCAGUGAUUUUUGCAGAACACGUGCACAACCCUGAGGUAUGUUUAAUCUAGGCAG", "RBNS enrichment (R)": 0.529}
{"Strand": "CAUGGCCACCACGCCCGGCCAGUUGCUGCUUUUCUUAUCCCCACAGCUUCUAACCAUUAUGUGCUGAGUAAAUAAUGCUACCUAUGAUUUUAGAACGGAUUUCUCAGGUA", "RBNS enrichment (R)": 0.625}
{"Strand": "GCCUCUCUGGAAUCUCCAUCCCAACCAUUUCCUGUUCUUGGGAAGGUCCUACGGGCUUCAGAAUCUUAAGACCACACCUUGACUCACCUCUAACCCACGCCGGGAUAUCC", "RBNS enrichment (R)": 0.372}
{"Strand": "UCCUCAGGCGGCUCCUCUGUAAAAUGAGAAAAUGUAUAUUUUUUUACUUCAUGAGAUCUUUGCUGGAAAUUAAUGAGAAGGGUCAGUGUUUGUGACUUAUGGGCUUAUUU", "RBNS enrichment (R)": 0.334}
{"Strand": "UUUGGUACAUUUUCAUAAAAUAUGAAGGGAUAACUACAAACUGGAGUAAAAAUGAUGGUAAUUAAAAAAAAUCCUCAGUAUCCCUAGCUUGUCUAUUAACUGUGAUAAUC", "RBNS enrichment (R)": 0.448}
{"Strand": "AUAUUUUCACAUUAGGUUGCUGUCUAAUUUUGGAGAGGGUCAGGAAUCGUUCUGGUGCCUUAAUGCACAGCUGGAAUUCAGGUAAACACAUCAGCUGUUGCUGGCGGUUG", "RBNS enrichment (R)": 0.336}
{"Strand": "UUAAAAGAAAGCAGUAUAGAUGUCUUACCAUGAAAUACAUUACUCUAGGCUAAAAUUUCAACUGUUUUAGUCAUAGAUUUUUAGCAUCUUUGUUAGAUCAGCAUAUAAUU", "RBNS enrichment (R)": 0.44}
{"Strand": "UCAUAGUCAGUGAGUGUGAAAGUUAGGCAUAAUAAUGGCAUCUCCCCACUUUAGGGUUCUCAAAUACUUUGGACAUCUCUUUCCUUAGAGCCAGGUAGAUGUCUUACAGG", "RBNS enrichment (R)": 0.376}
{"Strand": "UUUCGCUUUUCUUUUUUCUUGAGAGAUCUAAAGAGAAACUGUAGAUUGUUUUCCUGACAGCAAAAGACUAAUGUGACAAAAUGAAGUCAUUGUAAAGAAGCGAUGCAACU", "RBNS enrichment (R)": 0.714}
{"data": "Sample 2", "target": "Sal-like protein 4, full length isoform A (SALL4, Homo sapiens, UniProt Q9UJQ4, residues 1-1053)", "technique": "universal PBM", "molecule type": "double-stranded DNA, one strand shown", "matrix": "in vitro", "tested at": "600 nM", "notes": "8-mer, flanks averaged, mean of replicates", "direction": "higher = stronger binding", "chain of UniProt Q9UJQ4 (whole entry, looked up)": "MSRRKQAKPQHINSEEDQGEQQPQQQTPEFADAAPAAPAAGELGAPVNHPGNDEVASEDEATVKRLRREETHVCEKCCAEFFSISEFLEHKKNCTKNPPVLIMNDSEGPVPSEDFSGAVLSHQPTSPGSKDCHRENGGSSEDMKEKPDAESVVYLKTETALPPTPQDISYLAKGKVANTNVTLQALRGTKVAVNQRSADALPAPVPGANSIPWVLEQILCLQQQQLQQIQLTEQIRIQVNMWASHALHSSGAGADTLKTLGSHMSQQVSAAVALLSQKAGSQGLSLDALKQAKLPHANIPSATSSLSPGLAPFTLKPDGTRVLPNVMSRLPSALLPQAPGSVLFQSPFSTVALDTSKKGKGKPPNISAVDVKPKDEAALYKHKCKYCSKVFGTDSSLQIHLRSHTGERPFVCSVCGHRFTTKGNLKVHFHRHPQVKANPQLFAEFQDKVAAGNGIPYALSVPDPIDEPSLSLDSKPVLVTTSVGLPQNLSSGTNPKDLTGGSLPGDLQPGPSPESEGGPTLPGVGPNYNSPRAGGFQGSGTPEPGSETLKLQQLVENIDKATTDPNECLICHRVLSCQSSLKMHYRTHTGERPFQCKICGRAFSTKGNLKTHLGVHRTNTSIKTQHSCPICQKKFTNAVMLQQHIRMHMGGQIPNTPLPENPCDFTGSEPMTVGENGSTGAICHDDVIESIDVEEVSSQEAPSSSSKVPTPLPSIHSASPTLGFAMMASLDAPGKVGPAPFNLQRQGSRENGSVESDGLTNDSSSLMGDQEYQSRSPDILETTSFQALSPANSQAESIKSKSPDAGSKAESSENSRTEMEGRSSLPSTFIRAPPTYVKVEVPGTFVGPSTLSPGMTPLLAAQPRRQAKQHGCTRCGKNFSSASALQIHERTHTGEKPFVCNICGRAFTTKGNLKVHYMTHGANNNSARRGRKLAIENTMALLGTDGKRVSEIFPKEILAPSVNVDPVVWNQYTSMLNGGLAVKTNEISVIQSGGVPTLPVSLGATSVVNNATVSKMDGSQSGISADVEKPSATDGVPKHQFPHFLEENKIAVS"}
{"Strand": "CGTAGCAA", "E-score": 0.0525}
{"Strand": "AAACTTAC", "E-score": 0.17}
{"Strand": "CCATTGGC", "E-score": -0.261}
{"Strand": "GAAACATA", "E-score": 0.247}
{"Strand": "GCATCCCA", "E-score": -0.09}
{"Strand": "ATCTTTTA", "E-score": 0.261}
{"Strand": "AGGGCTTA", "E-score": -0.0914}
{"Strand": "ATAAACCA", "E-score": 0.245}
{"Strand": "AGGACAGA", "E-score": -0.0189}
{"Strand": "CAGTCTCA", "E-score": -0.0209}
{"Strand": "CTACCGAA", "E-score": 0.0207}
{"Strand": "AACTGGTA", "E-score": -0.118}
{"Strand": "TCATCAGA", "E-score": 0.127}
{"Strand": "GCAGCGAA", "E-score": -0.19}
{"Strand": "AGGGCACC", "E-score": -0.372}
{"data": "Sample 3", "target": "ABI1, truncated, D143A, DHFR fusion (Arabidopsis thaliana)", "technique": "DHFR PCA, deep sequencing", "matrix": "yeast", "notes": "methotrexate growth selection, single substitutions", "together with": "(+)-ABA 2500 µM", "reference": "wild-type fitted maximum", "direction": "higher = stronger binding", "parent": "PYL1, truncated, DHFR fusion (Arabidopsis thaliana); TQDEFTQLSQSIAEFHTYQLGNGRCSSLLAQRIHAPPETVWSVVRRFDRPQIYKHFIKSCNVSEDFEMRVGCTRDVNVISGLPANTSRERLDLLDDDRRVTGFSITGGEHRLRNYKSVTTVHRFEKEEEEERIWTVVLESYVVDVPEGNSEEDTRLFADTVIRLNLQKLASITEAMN; partner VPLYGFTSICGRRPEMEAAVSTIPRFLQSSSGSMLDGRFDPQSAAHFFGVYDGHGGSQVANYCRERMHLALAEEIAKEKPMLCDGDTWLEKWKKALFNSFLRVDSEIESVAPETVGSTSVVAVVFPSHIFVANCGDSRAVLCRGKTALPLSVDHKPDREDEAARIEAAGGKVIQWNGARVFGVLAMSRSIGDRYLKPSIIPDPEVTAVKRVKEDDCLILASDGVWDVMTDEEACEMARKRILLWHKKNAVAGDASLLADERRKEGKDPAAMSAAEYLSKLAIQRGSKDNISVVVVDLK"}
{"Change": "V70Q", "relative binding score [%]": 91.3}
{"Change": "M176R", "relative binding score [%]": 102}
{"Change": "P83E", "relative binding score [%]": 79.2}
{"Change": "Q167G", "relative binding score [%]": 95.3}
{"Change": "L82I", "relative binding score [%]": 98.8}
{"Change": "V161Q", "relative binding score [%]": 57.2}
{"Change": "F157E", "relative binding score [%]": 4.22}
{"Change": "L91P", "relative binding score [%]": 3.46}
{"Change": "T6S", "relative binding score [%]": 105}
{"Change": "A170R", "relative binding score [%]": 97.9}
{"Change": "V143T", "relative binding score [%]": 96}
{"Change": "N22R", "relative binding score [%]": 103}
{"Change": "S42H", "relative binding score [%]": 94.7}
{"Change": "D159Q", "relative binding score [%]": 88.5}
{"data": "Sample 4", "target": "Hepatocyte nuclear factor 3-alpha (Foxa1, Mus musculus, UniProt P35582, residues 1-468, full length assumed)", "technique": "EMSA with sequencing", "molecule type": "double-stranded DNA, one strand shown", "matrix": "in vitro", "tested at": "10 and 20 nM", "notes": "whole designed probe, mean of two concentrations, ends assumed", "reference": "negative control set to 0", "direction": "higher = stronger binding", "all sequences stand within": "GTGAGCGGTGCCCATTGATGGGGAAC … TTTCACTGGGATCGTGGGGAC", "chain of UniProt P35582 (whole entry, looked up)": "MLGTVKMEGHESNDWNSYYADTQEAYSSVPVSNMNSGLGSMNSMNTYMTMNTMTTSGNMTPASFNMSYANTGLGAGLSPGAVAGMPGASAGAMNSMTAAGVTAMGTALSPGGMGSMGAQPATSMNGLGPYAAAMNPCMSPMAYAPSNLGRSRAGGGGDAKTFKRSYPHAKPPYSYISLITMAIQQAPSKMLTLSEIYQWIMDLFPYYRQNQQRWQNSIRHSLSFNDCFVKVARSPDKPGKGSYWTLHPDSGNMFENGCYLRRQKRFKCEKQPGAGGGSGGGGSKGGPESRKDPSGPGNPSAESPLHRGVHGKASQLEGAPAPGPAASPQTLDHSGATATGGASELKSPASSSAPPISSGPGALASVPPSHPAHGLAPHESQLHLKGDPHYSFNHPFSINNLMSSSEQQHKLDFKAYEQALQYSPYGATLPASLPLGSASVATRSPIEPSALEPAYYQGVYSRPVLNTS"}
{"Strand": "GGGATGCAACGATGACTCCCTCCTCTAAATGTCTTGAACACTTATCAAATATTACATTTATTTCAAATGAAATTTTTATTGTCATTTGCTCATGTTTACATTGTGTCCCTCCTGCTAGGTTTTATAAATGAGCTGTTGTATAACTCTTCGGGTCCCCCAGTGTGTAATAACAGGTGCTTAATAAACATTTCAT", "normalised bound fraction [ratio]": 0.441}
{"Strand": "TTCTTTTAAAAATCACTTTATTCTTTTAAAAGCTTAAATTTTGACCCATAAAATAATGCACAAATAATCCTCTAATCGTTTTAAAAGGACCTGTTGTTTACTTTGAAATGATATTAATGCTTTTAAAATTTTAAGTCAATTTTTTCCCTTCACTTCAGAATGCTATTCATGTTTAGATAGCTAATCTTACACA", "normalised bound fraction [ratio]": 0.381}
{"Strand": "TCAGAGCTGTCAGCCTACTTGGCAGGCGACCTGACACTTTAGCTGAGTCACATTTAAAAACAATTTCCTAAGAAGGGAGTGGACTCCATGAGAGCAAACACCACCAGGCCACAGCTTAATTACTAAGTTGCCAACCTTTAGCTTTCCCCAGAGCCCCCTTATAAAACATTCAGATATCTACTGCCCAACAGTG", "normalised bound fraction [ratio]": 0.0752}
{"Strand": "CAGCCCACATGCCTTTGTTGTGGCTTCCAAGTTTTCTTTTCCACGTCACCTGCGCTGCTTGCTCTCTGGTTTTGTTGACTTTAGTGCTGTCTCTGTTTGCTCTGGCTGAGCCAACAGCCTCAGGATGAAACTCTGAGCCCAGGAAGTGTGAACCTGAGAGGCAGCAGGCTGGGGGTGGGGACGGAGGCAAATG", "normalised bound fraction [ratio]": 0.435}
{"Strand": "ATCTCTGGGTTCTTCCCTCTGAGAATCTCCCCCACCTCAGTTAAACTGCGCATCATAACTGCATGGCTATTTGAGATATTATTTTTAAATAACATGTTTACTTTGTGAAAGCTCTTAGTTAGGGAAACCAGAGGTCAGCATTGCAGTTTGTTTACAGATCTGTGAAATGGCTTTGCCCTGCTACCCCCTTATT", "normalised bound fraction [ratio]": 0.484}
{"Strand": "CATCAAGGGTGTGTGATGAATGTTATGTCTGTGATTATGCAACAGGAGATGGGACTTTCCATCTTTCTAGCAGGCTTTCTCGACTCTCTCCCTAAATGACTTTGTTGATGTAAGCCTCCATGTGGTAAAGCCCTTGTGGCGGGAACTCAGGGCAGCCTCCGGCAACAGCCAGCAGGGAGCTGGGACTCAACAA", "normalised bound fraction [ratio]": -0.0311}
{"Strand": "GTGTGTGCGCGCGCGTGTGTGTGTGTTTTCTTAAGCCGGGCTATTCAAACCCTGCTGCAATTCTCCGGTAAAGGGGCACAATGATTCATCGTTTATTTGCATTAGATTGCAAACGGCGCGGTTCGCGCACTTTGCAGCCGGCCCGGTGGAGCAGCCAGTGCCGGATTTCTCCCTTTTTTTGCAGATCTGCAGA", "normalised bound fraction [ratio]": 0.446}
{"Strand": "AACGCTGTAGGTCAGAAAGATGTGCTTACCTTCACACAGAGCTGCAGAAATCAGGAAGGCTGCCAAGAGAGCCACGGCCAGCTTGGAAGTCAAGATTACACACAGTGAGATGGTTCCTTCCGGTGGTTTCTTCCTGGCTCTTGTCCTAGAAGCTAGAGTGCTCTGCTGTCTCTGAAAGTTTGTGCCTTATGGA", "normalised bound fraction [ratio]": -0.0526}
{"data": "Sample 5", "target": "Histone acetyltransferase KAT6A, winged helix 2, GST fusion (KAT6A, Homo sapiens, UniProt Q92794, residues 85-181)", "technique": "protein binding microarray", "molecule type": "double-stranded DNA, one strand shown", "matrix": "in vitro", "tested at": "not given", "notes": "8-mer, flanks averaged, mean of 2 arrays, mostly near background", "reference": "not given", "direction": "higher = stronger binding", "Construct (chain)": "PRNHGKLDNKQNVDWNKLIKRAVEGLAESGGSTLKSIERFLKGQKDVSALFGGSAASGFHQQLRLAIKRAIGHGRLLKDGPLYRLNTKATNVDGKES"}
{"Strand": "ATTGAAAT", "E-score": 0.098}
{"Strand": "ATTCGGTA", "E-score": 0.074}
{"Strand": "AACCGGAT", "E-score": 0.0705}
{"Strand": "CTAAGTGC", "E-score": 0.0459}
{"Strand": "ACGCATAT", "E-score": -0.117}
{"Strand": "ATAGAGAT", "E-score": -0.00509}
{"Strand": "GCCGGTCA", "E-score": 0.13}
{"Strand": "CTGCATAA", "E-score": 0.0235}
{"Strand": "ACCGAAGC", "E-score": -0.0379}
{"Strand": "AGCGGTCG", "E-score": -0.0479}
{"Strand": "AGCGAACA", "E-score": 0.194}
{"Strand": "ACAAACAG", "E-score": 0.0114}
{"Strand": "GACGCTCA", "E-score": -0.0562}
{"Strand": "AGAGAAAG", "E-score": 0.0402}
{"Strand": "ACAGTAGA", "E-score": -0.134}
{"Strand": "CCTTTCCC", "E-score": 0.0876}
{"Strand": "AATATCTC", "E-score": -0.0229}
{"Strand": "AATCGCGC", "E-score": 0.186}
{"Strand": "CAAAACCA", "E-score": 0.0605}
{"Strand": "CAAGGTGA", "E-score": -0.092}
{"Strand": "AAGATGGT", "E-score": -0.135}
{"Strand": "AGTAGACT", "E-score": -0.105}
{"Strand": "ATATAGAA", "E-score": -0.14}
{"Strand": "ACGCGAGC", "E-score": 0.0369}
{"Strand": "AAAAGGCG", "E-score": 0.0328}
